Assay results collected from several papers.
A part holds a random share of what one study measured.

Study 1
Target: Interferon regulatory factor 7, full length, phosphomimetic (IRF7, Homo sapiens, UniProt Q92985, residues 1-503, S471D/S472D/S475D/S476D/S477D/S483D/S484D/S487D)
Technique: protein-binding microarray
Molecule type: double-stranded DNA, one strand shown
Sample: in vitro
Concentration: 2200 nM top
Notes: 60-bp whole probe
With: salmon DNA 0.4 mg/ml
Relative to: random background probes
Reading: higher = stronger binding
Constant ends, left off below: GCCTAGCAC … GTCTTGATTCGCTTGACGCTGCTG
Target sequence (chain): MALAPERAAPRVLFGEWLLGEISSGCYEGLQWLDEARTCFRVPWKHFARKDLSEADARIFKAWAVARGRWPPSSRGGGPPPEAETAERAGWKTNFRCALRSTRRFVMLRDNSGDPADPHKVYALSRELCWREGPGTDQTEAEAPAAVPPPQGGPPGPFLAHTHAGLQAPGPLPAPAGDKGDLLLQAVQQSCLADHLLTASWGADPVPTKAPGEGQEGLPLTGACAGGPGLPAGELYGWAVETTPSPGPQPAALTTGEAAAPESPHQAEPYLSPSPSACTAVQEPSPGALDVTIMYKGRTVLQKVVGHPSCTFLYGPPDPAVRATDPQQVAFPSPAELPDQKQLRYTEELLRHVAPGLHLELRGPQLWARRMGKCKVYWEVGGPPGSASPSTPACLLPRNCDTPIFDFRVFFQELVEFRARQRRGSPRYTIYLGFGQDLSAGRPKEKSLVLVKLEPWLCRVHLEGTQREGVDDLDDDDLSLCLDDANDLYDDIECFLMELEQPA
For `GACGATTTCAGACTGGCGACGTGCTAG`, “fitted relative affinity” read 0.433 z-score.
`GATGGACTGGGGTTTCGGGACGTGCTA`: “fitted relative affinity” 0.695 z-score.
For `TCCACTTTGACTTAAGAGGCGTGCTAG`, “fitted relative affinity” read 0.854 z-score.
For `AGTCTCTTCTGGGACTCATGGTGCTAG`, “fitted relative affinity” read 0.141 z-score.
For `TTAGGACCGGACACTGGGTTAGTGCTA`, “fitted relative affinity” read -1.04 z-score.
Under “fitted relative affinity”, `TACGGTATCGGGTTTCGGGACGTGCTA` is recorded as 1.95 z-score.
`GACGATATGGGGTTTCGAGACGTGCTA` — result for “fitted relative affinity”: 1.58 z-score.
`TTCATTATTGTTTCCTTCCTGTGCTAG` — result for “fitted relative affinity”: 2.64 z-score.

Study 2
Target: RNA binding protein fox-1 homolog 2, RRM domain, GST-SBP tag (RBFOX2, Homo sapiens, UniProt O43251-10, residues 100-194)
Technique: RNA Bind-n-Seq
Molecule type: RNA
Sample: in vitro
Concentration: 365 nM
Notes: natural RNA segment, single round, ends assumed
Relative to: no-protein control
Reading: higher = stronger binding
Constant ends, left off below: GGGAGUUCUACAGUCCGACGAUC … UGGAAUUCUCGGGUGCCAA
Residues (chain): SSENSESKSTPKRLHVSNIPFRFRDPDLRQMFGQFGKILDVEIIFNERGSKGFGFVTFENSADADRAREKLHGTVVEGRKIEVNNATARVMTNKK
For `GAGAGUUAGACAGCAACUUACCUACUCUGAAGUUUUCUACAACAAAAAAAGAGUUGAGUGAAUCUGUUUACAUUUAGAAUAAUGUUUUUUUCUUCAAGAGACGCAAUUGC`, “RBNS enrichment (R)” read 0.405.
`UUGCCAAAGCCCUCAUAAAGCCCUCCGGCUUGAGGAGAGAGUGUAUAGUCAUGGGUUCUGCCUCUGUGCCCUUGCUGGCCGCUUCUCCUCUGCCUUCUUUCCUGGAACUC`: “RBNS enrichment (R)” 0.359.
`CUCUUCCAGCAUGGAGGGUACCAUGGCCCGUAGGAGCCUGGGGUUCCUAGCAAACGGGAGGAAACCAGCUCCUGUGUGCCUCUGACGACUGUUGUCUGUGCCAACCUAAG` — result for “RBNS enrichment (R)”: 0.67.
`GUGUAUAAGCAUACAUGGGAAUUUUUCUGAAUGUAAGCAGUUUUGAUGUGUCUGUAUAUCAAUCUGUAUCUACAUUUGAUGGACUGAGUAAGAAUGUUGCAUGUGAGAGA` — result for “RBNS enrichment (R)”: 7.89.
`UGUUUAAUAAGUGCCCAAAGAGCACGAACAUUUUUCAAAAAUACCUUGUGUUGUCCUUUGUCUUUUCUGUCUCAGAAUUUUGUACAUCUGGCUUAUUUUAAUGUGAUGAU` — result for “RBNS enrichment (R)”: 0.407.
Under “RBNS enrichment (R)”, `UUGAUUCAGCCUGUUUGGCGUUUCCCAGAGUCAUCUGAUUGGACAGGCAUGGGUGCAAGGAAAAUUAGGGUACUCAACCUAAGUUCGGUUCCGAUGAAUUCUUAUCCCCU` is recorded as 0.471.
`UACUUUUAAAAUUGUACCCAAACCAGGAAAUUCACAGAUGUACUGCAAUCAAACCUAAGCUGUUGCCACAAACCACUAAUGAAACUCAGUGUUUGAGCCAAAUCUCCGCA`: “RBNS enrichment (R)” 1.74.
`UGCAGUAAAAACAAAGGACAACCCAGCCAAGCAGAGGAAGAAGCUGCCGAAGGGGACAGACUCCACUGCCAGACGGCCAGCCGUUUGCUGUCCUGCCGCCCGGCUCAGUC` — result for “RBNS enrichment (R)”: 0.229.
For `CCUUUUGAUUAAGAGCCUUUUUUGUUUCUGCUCUUUGUCAGCUUUCAGGGGAGAAGGAGGCCACUGGAAAAUUAUUUCCCUAAGUGCAGGCUGUUGACUGCGUAUGCCAA`, “RBNS enrichment (R)” read 1.03.

Study 3
Target: Centromere-binding protein 1, full length, N-terminal tag (CBF1, Saccharomyces cerevisiae, UniProt P17106, residues 1-351)
UniProt P17106, sequence (whole entry, looked up): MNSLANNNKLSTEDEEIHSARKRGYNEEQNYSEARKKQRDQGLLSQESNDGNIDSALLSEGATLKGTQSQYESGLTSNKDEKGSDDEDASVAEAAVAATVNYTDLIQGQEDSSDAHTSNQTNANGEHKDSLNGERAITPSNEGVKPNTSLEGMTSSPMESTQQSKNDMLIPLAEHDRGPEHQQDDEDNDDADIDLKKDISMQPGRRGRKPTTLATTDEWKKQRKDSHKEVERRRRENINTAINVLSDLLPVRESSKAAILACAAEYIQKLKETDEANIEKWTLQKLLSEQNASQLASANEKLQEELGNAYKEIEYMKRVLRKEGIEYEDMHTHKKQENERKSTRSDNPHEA
Technique: protein-binding microarray
Molecule type: double-stranded DNA, one strand shown
Sample: in vitro
Concentration: 0.8 µM
Notes: whole 60-bp probe, no competitor
Reading: higher = stronger binding
Constant ends, left off below: … GTCTTGATTCGCTTGACGCTGCTG
For `CTATGGAATCAAGGTGGTGCCGGTGTGAAGCCGTTC`, the fluorescence intensity was 506 a.u.
`CTACCCAATCTAACACACATGAGTCGTCGTACGTTC` has a fluorescence intensity of 574 a.u.
For `GAAGGTTGAAAAGAGCACACCTGAGTCATCTGATAG`, the fluorescence intensity was 635 a.u.
`CTACGGTTAATTGAAAACGTGGAAAAGTATCGATTC` has a fluorescence intensity of 575 a.u.
The fluorescence intensity of `CTATGTGGTATTGAGCACGCGGTACTAGAAGGATTC` is reported as 663 a.u.
`CTATATACTAGGTATTTACACGTGAAAGTATTGTTC` has a fluorescence intensity of 3340 a.u.
For `CCTAACTACTATAATGACATCAGATAGCTTCGTACA`, the fluorescence intensity was 546 a.u.

Mixed results
`PhoQ, residues 284 288 289 292 302 303 ASSHFY` gave a fold induction of 11.5 (PhoP, residues 12 14 15 18 19 GHCSL (Escherichia coli, UniProt P23836); Sort-seq, item: YFP reporter; E. coli; PhoQ-PhoP variant library, with: 10 µM Mg2+; relative to: high Mg2+ state, higher = stronger signaling).

Excerpt of the above (study 2):
For `GAGAGUUAGACAGCAACUUACCUACUCUGAAGUUUUCUACAACAAAAAAAGAGUUGAGUGAAUCUGUUUACAUUUAGAAUAAUGUUUUUUUCUUCAAGAGACGCAAUUGC`, “RBNS enrichment (R)” read 0.405.
For `CCUUUUGAUUAAGAGCCUUUUUUGUUUCUGCUCUUUGUCAGCUUUCAGGGGAGAAGGAGGCCACUGGAAAAUUAUUUCCCUAAGUGCAGGCUGUUGACUGCGUAUGCCAA`, “RBNS enrichment (R)” read 1.03.
`CUCUUCCAGCAUGGAGGGUACCAUGGCCCGUAGGAGCCUGGGGUUCCUAGCAAACGGGAGGAAACCAGCUCCUGUGUGCCUCUGACGACUGUUGUCUGUGCCAACCUAAG` — result for “RBNS enrichment (R)”: 0.67.
